{"data": "Measured values of several laboratories", "note": "Every numbered part comes from another study and shows a few of its results, in no order. Substitutions count along the parent as printed."}
{"data": "Block 1", "target": "Fragile X messenger ribonucleoprotein 1, C-terminal low-complexity region (Fmr1, Mus musculus, UniProt P35922)", "technique": "RNA Bind-n-Seq", "form": "RNA", "medium": "in vitro", "concentration": "200 nM", "setting": "whole 134-nt RNA, ends assumed", "with": "150 mM KCl", "relative to": "input library", "reading": "higher = stronger binding", "shared flanks, not repeated": "GGGAGUUCUACAGUCCGACGAUC … UGGAAUUCUCGGGUGUCAAGG"}
{"Oligonucleotide": "AGUCCUGUGCUACACAUCGUAUGUACCGAAUCGGGGAGGGGAGGGGUUUUUUUGGGGAAAGUAUUAUGUUACGCCGUUCGGAUCUGCACU", "log2 enrichment": 0.95}
{"Oligonucleotide": "AAGUCCUGUGCUACACAUCGUAUGUACCGAAUCGGAAAGGUUUUUUUGGAAAAAGGAAAGUAUUAUGUUACGCCGUUCGGAUCUGCACUU", "log2 enrichment": -1.25}
{"Oligonucleotide": "CAAGUCCUGUGCUACACAUCGUAUGUACCGAAUCGGUUUUGGUUUUGGUUUUGGGAAAGUAUUAUGUUACGCCGUUCGGAUCUGCACUUC", "log2 enrichment": -0.767}
{"Oligonucleotide": "UAACUUUAGAGGAGUAUCUGAUGGAUAUGGCAGUGGACGUGGAUUUGGGGAUGGCUAUAAUGGGUAUGGAGGAGGACCUGGAGGUGGCAA", "log2 enrichment": 0.451}
{"Oligonucleotide": "GCAGGAAGUAAAAACAAAUGGAAAUGCUUCGGAUAGUGGCUGGGGUGGGGGUUGCUAAGGAAAGGGUGGGAUGGGAGUGGGUAAAGAGUU", "log2 enrichment": 0.293}
{"Oligonucleotide": "UGGGAGGUGGAUUUUGUUUAUUGUUUUAGCUCAUUUCCAGGGGUGGGAAUUUUUUUUUAAUAUGUGUCAUGAAUAAAGUUGUUUUUGAAA", "log2 enrichment": 0.174}
{"Oligonucleotide": "UGGGAGGUGGAUUUUGUUUAUUUUUUUAGCUCAUUUCCAGGGGUGGGAAUUUUUUUUUAAUUUGUGUCAUGAAUAAAGUUGUUUUUGAAA", "log2 enrichment": 0.299}
{"Oligonucleotide": "UAACUUUAGAGGAGGAUCUGAUGGAUAUGGCAGUCGACGUGGAUUUGGGGAUGGCUAUAAUGGGUAUGGAGGAGGACCUGGAGGUGGCAA", "log2 enrichment": 0.138}
{"Oligonucleotide": "UCCUGUGCUACACAUCGUAUGUACCGAAUCGGGAAAAAAAGGGAAAAAGGGAAAAAGGGAAAGUAUUAUGUUACGCCGUUCGGAUCUGCA", "log2 enrichment": -0.179}
{"Oligonucleotide": "ACCAUGCAGGUGGGCAUCUUUGGGAAGUGGGGCAAGGGGGGGAUAGGGAGGGGGGUAACACUUUGGGAACAGAUGGUCCCAGGUCGUUUC", "log2 enrichment": 0.682}
{"Oligonucleotide": "GUCCUGUGCUACACAUCGUAUGUACCGAAUCGGGAAAAAAAGGGUUUGGGUUUUUGGGAAAGUAUUAUGUUACGCCGUUCGGAUCUGCAC", "log2 enrichment": -0.416}
{"data": "Block 2", "Molecule": "PhoQ, residues 284 288 289 292 302 303 QWQEDG", "technique": "Sort-seq", "refers to": "YFP reporter", "medium": "E. coli", "setting": "PhoQ-PhoP variant library", "with": "10 µM Mg2+", "relative to": "high Mg2+ state", "reading": "higher = stronger signaling"}
{"target": "PhoP, residues 12 14 15 18 19 QYFSL (Escherichia coli, UniProt P23836)", "fold induction": 3.91}
{"target": "PhoP, residues 12 14 15 18 19 NYFRM (Escherichia coli, UniProt P23836)", "fold induction": 8.1}
{"target": "PhoP, residues 12 14 15 18 19 TQALL (Escherichia coli, UniProt P23836)", "fold induction": 5.65}
{"data": "Block 3", "target": "CCNB3, cyclin fold, Cln2 fusion (human)", "technique": "yeast growth competition, sequencing", "medium": "yeast", "setting": "weak parent motif", "relative to": "not given", "reading": "higher = stronger binding", "parent": "DBF4B docking peptide (human); LGYLYLLLTQSLW"}
{"Change": "LGYLYLALTQSLW [L7A]", "normalised enrichment score": -0.421}
{"Change": "LGALYLLLTQSLW [Y3A]", "normalised enrichment score": 0.0911}
{"Change": "LGYAYLLLTQSLW [L4A]", "normalised enrichment score": 0.362}
{"Change": "LGYLYLLLTQSAW [L12A]", "normalised enrichment score": 0.398}
{"Change": "LGYLYALLTQSLW [L6A]", "normalised enrichment score": 0.102}
{"Change": "LAYLYLLLTQSLW [G2A]", "normalised enrichment score": 0.0677}
{"data": "Block 4", "target": "Interferon regulatory factor 7, full length, phosphomimetic (IRF7, Homo sapiens, UniProt Q92985, residues 1-503, S101K/S471D/S472D/S475D/S476D/S477D/S483D/S484D/S487D)", "technique": "protein-binding microarray", "form": "double-stranded DNA, one strand shown", "medium": "in vitro", "concentration": "250 nM", "setting": "60-bp whole probe", "with": "salmon DNA 0.4 mg/ml", "relative to": "random background probes", "reading": "higher = stronger binding", "shared flanks, not repeated": "GCCTAGCAC … GTCTTGATTCGCTTGACGCTGCTG", "sequence of UniProt Q92985 (whole entry, unmodified, looked up)": "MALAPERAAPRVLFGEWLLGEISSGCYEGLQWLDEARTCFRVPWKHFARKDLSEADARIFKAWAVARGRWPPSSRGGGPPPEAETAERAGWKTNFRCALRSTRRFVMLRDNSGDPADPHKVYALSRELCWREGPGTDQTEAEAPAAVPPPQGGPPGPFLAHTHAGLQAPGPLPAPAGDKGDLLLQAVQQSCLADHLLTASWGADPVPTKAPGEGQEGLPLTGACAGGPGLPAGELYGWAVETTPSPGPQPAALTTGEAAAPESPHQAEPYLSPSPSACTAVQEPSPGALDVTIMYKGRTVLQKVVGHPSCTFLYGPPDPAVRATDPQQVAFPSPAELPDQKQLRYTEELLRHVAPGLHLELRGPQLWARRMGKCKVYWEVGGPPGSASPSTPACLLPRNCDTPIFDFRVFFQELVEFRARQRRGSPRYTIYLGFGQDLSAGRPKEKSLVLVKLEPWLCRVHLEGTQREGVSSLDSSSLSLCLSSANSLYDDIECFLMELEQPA"}
{"Oligonucleotide": "TTAGGTTTCGGATATCGGTTAGTGCTA", "log fluorescence": "6.01 z-score"}
{"Oligonucleotide": "TCATTTTTTTTTTACTTACTGTGCTAG", "log fluorescence": "1.06 z-score"}
{"Oligonucleotide": "GACTGTTTCGGGTATCGGGACGTGCTA", "log fluorescence": "3 z-score"}
{"Oligonucleotide": "GACGAACTGAAACTGGAGACGTGCTAG", "log fluorescence": "1.08 z-score"}
{"Oligonucleotide": "GACGATATCAGTATCGAGAGGTGCTAG", "log fluorescence": "-0.135 z-score"}
{"Oligonucleotide": "GACGATTTTGGGACTGGAGACGTGCTA", "log fluorescence": "-0.0672 z-score"}
{"Oligonucleotide": "TTAGGTATCGGACGGGGTTAGTGCTAG", "log fluorescence": "0.0361 z-score"}
{"Oligonucleotide": "GACGGTTTCGGGTTTCGGGACGTGCTA", "log fluorescence": "11.3 z-score"}
{"Oligonucleotide": "TTAGGTATCCGTTTCCTTTAGTGCTAG", "log fluorescence": "2.55 z-score"}
{"Oligonucleotide": "TCACTTTCCTTTATGTCACTGTGCTAG", "log fluorescence": "2.43 z-score"}
{"Oligonucleotide": "TCATGCTTGTATCTGGGACTGTGCTAG", "log fluorescence": "-0.316 z-score"}
{"Oligonucleotide": "TCATCTCTACATGTGTTACTGTGCTAG", "log fluorescence": "0.555 z-score"}
{"Oligonucleotide": "TTTTTTTTCTACTTCTGTTTGTGCTAG", "log fluorescence": "1.91 z-score"}
{"Oligonucleotide": "GACGATCTCTGTTTCGAGACGTGCTAG", "log fluorescence": "1.54 z-score"}
{"Oligonucleotide": "TTAGATATCAGTCACGATTAGTGCTAG", "log fluorescence": "0.326 z-score"}
{"note": "A few entries again (block 3):"}
{"Change": "LGYLYLALTQSLW [L7A]", "normalised enrichment score": -0.421}
{"Change": "LGALYLLLTQSLW [Y3A]", "normalised enrichment score": 0.0911}
{"Change": "LGYAYLLLTQSLW [L4A]", "normalised enrichment score": 0.362}
{"Change": "LGYLYLLLTQSAW [L12A]", "normalised enrichment score": 0.398}
{"Change": "LGYLYALLTQSLW [L6A]", "normalised enrichment score": 0.102}
{"Change": "LAYLYLLLTQSLW [G2A]", "normalised enrichment score": 0.0677}
